Published values pooled from the literature.
Compare with care: the assays were run in different laboratories. “And” joins repeats or separate records; there may be more than shown. ± marks the error that the study gave.
CA9: Carbonic anhydrase 9 (CA9, Homo sapiens, UniProt Q16790)
Tmem97: Sigma intracellular receptor 2 (Tmem97, Rattus norvegicus, UniProt Q5U3Y7)
Chain of UniProt Q5U3Y7 (whole entry, looked up): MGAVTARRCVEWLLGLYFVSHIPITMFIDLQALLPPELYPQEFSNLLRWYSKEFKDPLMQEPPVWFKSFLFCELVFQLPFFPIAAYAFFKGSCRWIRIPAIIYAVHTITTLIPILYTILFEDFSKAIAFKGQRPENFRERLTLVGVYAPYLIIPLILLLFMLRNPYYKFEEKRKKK
Grik2: Glutamate receptor ionotropic, kainate 2 (Grik2, Rattus norvegicus, UniProt P42260)
Chain of UniProt P42260 (whole entry, looked up): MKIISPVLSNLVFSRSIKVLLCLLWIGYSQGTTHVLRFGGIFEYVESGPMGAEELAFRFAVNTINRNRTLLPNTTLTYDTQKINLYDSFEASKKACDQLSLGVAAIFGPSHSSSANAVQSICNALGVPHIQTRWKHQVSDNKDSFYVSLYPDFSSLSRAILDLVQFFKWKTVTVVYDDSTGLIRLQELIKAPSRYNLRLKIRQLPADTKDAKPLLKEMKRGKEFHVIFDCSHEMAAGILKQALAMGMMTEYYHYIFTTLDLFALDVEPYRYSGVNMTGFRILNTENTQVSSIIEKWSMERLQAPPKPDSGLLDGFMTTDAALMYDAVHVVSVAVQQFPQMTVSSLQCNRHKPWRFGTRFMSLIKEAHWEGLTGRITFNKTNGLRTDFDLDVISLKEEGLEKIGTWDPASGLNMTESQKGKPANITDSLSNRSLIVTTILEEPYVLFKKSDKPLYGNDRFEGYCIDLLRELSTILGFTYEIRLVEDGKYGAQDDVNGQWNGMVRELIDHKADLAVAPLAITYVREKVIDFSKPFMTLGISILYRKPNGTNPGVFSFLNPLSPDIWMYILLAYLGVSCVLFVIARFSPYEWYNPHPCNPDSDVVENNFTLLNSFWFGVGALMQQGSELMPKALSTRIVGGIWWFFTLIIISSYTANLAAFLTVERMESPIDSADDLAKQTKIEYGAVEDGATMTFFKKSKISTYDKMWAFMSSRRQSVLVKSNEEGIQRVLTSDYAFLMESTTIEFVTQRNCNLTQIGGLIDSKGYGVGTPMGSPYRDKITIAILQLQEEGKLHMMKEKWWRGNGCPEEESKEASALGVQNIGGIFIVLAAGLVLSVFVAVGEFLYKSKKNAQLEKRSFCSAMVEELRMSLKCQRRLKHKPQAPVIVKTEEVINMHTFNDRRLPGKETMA
ADH1 H49Q: ADH1 (Saccharomyces cerevisiae, UniProt P00330, H49Q)
Chain of UniProt P00330 (whole entry, unmodified, looked up): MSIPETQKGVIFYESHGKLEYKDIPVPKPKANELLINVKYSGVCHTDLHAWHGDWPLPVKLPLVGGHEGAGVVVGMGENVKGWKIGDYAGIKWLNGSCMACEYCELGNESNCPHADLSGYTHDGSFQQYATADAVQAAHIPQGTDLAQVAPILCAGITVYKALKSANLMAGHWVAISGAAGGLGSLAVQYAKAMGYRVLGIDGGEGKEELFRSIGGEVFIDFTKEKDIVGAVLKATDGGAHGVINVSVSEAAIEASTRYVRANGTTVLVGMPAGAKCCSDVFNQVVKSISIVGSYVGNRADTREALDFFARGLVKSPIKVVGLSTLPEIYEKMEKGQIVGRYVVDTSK
SIGMAR1: Sigma non-opioid intracellular receptor 1 (SIGMAR1, Cavia porcellus, UniProt Q60492)
Chain of UniProt Q9NWT6 (whole entry, unmodified, looked up): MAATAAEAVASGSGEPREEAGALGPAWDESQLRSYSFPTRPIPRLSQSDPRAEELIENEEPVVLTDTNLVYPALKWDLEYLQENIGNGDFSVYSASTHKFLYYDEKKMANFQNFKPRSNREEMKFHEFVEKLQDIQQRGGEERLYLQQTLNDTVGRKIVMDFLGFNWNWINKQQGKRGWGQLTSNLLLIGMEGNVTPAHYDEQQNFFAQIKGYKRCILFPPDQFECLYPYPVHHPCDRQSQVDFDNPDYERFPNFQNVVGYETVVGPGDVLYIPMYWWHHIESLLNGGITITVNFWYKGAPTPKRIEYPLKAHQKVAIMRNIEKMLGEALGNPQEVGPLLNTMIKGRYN
Chain of UniProt Q60492 (whole entry, looked up): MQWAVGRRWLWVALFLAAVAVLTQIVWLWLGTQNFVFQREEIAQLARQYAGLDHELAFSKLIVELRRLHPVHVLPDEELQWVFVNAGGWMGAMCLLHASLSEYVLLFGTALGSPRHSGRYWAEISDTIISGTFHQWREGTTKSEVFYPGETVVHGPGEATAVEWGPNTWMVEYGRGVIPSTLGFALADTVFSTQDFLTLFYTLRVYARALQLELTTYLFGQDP
Chain of UniProt P49327 (whole entry, looked up): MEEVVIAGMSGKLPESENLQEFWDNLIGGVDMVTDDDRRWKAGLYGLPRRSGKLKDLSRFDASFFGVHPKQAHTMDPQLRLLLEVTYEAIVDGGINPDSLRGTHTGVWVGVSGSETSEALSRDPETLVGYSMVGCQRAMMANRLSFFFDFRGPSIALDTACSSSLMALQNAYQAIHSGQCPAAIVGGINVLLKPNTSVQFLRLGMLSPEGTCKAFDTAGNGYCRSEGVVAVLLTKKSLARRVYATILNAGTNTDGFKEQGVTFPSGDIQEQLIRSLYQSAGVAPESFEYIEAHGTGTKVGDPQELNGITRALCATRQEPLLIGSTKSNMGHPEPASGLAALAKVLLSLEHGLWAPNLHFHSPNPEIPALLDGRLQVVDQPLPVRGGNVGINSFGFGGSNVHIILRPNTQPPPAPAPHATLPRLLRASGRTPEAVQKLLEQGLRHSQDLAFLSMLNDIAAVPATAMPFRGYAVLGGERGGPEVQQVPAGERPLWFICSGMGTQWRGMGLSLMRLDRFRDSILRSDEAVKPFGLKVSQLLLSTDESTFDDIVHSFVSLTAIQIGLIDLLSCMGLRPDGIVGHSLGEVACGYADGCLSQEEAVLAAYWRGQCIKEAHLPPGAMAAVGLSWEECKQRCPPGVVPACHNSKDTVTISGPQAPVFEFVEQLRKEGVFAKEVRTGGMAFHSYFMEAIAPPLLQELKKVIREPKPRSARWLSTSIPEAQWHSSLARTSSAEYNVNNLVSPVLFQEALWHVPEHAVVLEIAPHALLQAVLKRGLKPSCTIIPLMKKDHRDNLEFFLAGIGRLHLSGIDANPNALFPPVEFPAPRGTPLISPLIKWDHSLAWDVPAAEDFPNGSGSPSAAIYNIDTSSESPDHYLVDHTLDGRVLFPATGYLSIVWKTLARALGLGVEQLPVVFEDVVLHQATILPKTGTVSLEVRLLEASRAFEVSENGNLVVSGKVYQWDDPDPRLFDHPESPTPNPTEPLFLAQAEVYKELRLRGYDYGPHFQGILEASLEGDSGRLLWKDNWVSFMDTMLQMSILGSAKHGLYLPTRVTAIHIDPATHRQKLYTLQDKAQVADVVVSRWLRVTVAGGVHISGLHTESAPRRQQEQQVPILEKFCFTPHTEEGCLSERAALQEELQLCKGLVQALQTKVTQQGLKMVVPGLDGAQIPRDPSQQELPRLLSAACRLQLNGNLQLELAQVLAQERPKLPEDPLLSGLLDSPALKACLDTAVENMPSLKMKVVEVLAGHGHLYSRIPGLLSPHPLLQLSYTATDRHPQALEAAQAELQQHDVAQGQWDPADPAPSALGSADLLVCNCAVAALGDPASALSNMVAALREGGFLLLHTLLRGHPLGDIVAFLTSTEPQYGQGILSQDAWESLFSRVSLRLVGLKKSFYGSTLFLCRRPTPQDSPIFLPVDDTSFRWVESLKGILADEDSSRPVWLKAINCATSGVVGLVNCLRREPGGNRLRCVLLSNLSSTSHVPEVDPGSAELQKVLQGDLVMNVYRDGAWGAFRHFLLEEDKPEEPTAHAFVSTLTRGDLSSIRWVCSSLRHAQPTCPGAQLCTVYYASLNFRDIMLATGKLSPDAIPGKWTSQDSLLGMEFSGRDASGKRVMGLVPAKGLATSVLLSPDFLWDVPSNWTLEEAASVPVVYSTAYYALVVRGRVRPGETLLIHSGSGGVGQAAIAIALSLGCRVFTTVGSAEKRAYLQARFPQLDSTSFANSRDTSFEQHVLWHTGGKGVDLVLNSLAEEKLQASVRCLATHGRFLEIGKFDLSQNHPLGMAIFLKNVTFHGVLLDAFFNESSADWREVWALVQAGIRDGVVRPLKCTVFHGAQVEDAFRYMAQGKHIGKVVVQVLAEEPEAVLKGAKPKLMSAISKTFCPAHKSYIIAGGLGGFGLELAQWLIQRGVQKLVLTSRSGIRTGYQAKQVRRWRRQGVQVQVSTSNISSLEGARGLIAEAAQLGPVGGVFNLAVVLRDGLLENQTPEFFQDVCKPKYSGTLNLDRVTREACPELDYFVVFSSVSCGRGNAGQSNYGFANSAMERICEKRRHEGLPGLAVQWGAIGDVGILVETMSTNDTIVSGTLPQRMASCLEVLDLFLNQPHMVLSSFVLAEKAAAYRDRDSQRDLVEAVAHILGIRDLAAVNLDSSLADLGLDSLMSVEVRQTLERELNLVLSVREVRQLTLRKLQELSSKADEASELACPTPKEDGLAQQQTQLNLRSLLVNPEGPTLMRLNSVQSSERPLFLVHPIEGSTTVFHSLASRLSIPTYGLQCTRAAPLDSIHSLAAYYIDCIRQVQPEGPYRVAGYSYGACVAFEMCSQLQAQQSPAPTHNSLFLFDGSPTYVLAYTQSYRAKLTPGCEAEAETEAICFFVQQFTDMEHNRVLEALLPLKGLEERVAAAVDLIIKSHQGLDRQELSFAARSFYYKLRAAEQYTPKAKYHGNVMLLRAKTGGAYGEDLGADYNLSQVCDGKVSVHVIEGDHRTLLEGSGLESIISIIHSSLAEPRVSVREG
Chain of UniProt Q96NT5 (whole entry, unmodified, looked up): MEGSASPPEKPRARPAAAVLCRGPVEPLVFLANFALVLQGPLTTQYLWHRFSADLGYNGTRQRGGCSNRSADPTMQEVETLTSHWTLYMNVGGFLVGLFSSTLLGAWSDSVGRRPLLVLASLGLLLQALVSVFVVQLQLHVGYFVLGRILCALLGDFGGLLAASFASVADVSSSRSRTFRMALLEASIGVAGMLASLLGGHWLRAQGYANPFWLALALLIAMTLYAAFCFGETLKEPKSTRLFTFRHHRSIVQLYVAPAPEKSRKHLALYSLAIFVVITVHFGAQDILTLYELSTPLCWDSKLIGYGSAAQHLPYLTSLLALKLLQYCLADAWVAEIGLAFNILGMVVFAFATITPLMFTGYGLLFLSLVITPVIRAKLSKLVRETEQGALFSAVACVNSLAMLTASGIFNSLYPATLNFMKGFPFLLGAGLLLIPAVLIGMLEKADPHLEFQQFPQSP

SMILES	tested on	assay	system	setting	how to read	measurement	result
COc1cc(Nc2ncc(F)c(Nc3ccc4c(n3)NC(=O)C(C)(C)O4)n2)cc(OC)c1OC	NR3C1 (Homo sapiens, UniProt P04150)	–	–	–	–	IC50	> 10 µM
O=C(Nc1ccc2c(c1)C=CCP(=O)(O)O2)c1ccccc1Br	CA9	–	–	–	–	Ki	0.0232 µM
OC(c1ccc(F)cc1)C(F)(F)CCN1CCC(O)(c2ccc(Cl)cc2)CC1 (racemic)	Tmem97	–	–	–	–	Ki	0.032 ± 0.0032 µM
Oc1ccc(N=Nc2ccc(-c3nc4ccccc4s3)cc2)cc1CN(Cc1ccccn1)Cc1ccccn1	Amyloid-beta precursor protein, Aβ40 fibrils (APP, Homo sapiens, UniProt P05067)	binding to Aβ fibrils, thioflavin T competition	–	Aβ 5 µM, with: ThT 2 µM	–	Ki	1.54 µM
O=C(Nc1ccc2c(c1)C=CCP(=O)(O)O2)c1ccc([N+](=O)[O-])cc1	CA9	–	–	–	–	Ki	0.0294 µM
O=C(NCCN1CCCCC1)c1ccc(-c2ccc(N3CCSCC3)nc2)cc1	Vero-E6	CellTiter-Glo ATP	–	72 h, second round 5-point	baseline: DMSO 0%, hyamine -100%, more negative, more toxic	maximum response	-24.1%
OC1Cc2ccccc2CC1N1CCC2(C=Cc3ccc(F)cc32)CC1 (racemic)	Tmem97	radioligand binding	rat liver	with: [3H]DTG, 1 µM dextrallorphan mask	–	Ki	0.19 ± 0.05 µM
OB(O)c1csc2ccccc12	Uncharacterized hydrolase SAUSA300_2518 (Staphylococcus aureus, UniProt Q2FDS6)	enzyme activity, inhibitor	–	–	–	Ki	0.012 µM
C[C@H]1CN(c2n[nH]c3nc(N[C@H]4CC[C@H](NS(=O)(=O)CCC(F)(F)F)CC4)ncc23)CCO1	Fatty acid synthase (FASN, Homo sapiens, UniProt P49327)	inhibitor, Kinobeads competition profiling	–	20 µM	baseline: vehicle	relative abundance	1.19
Cc1ccc(NC(=O)Nc2ccc3c(c2)C=CCP(=O)(O)O3)cc1	CA9	–	–	–	–	Ki	0.0469 µM
C=CC(O)CO (centres unmarked)	Cytochrome P450 2E1 (Cyp2e1, Mus musculus, UniProt Q05421)	4-nitrophenol oxidation, inhibitor	B6C3F1 mouse, liver microsomes	30 min, pH 7.4, binding to substrate-bound enzyme	–	Ki	2100 µM
NC(CC1(C(=O)O)CC2OC(CO)C(O)C(O)C2O1)C(=O)O (centres unmarked)	Grik2	binding	HEK293T/17 membranes	with: [3H]kainate	–	Ki	0.834 µM
NC(=O)c1ccc[n+]([C@@H]2O[C@H](COP(=O)([O-])OP(=O)(O)OC[C@H]3O[C@@H](n4cnc5c(N)ncnc54)[C@H](O)[C@@H]3O)[C@@H](O)[C@H]2O)c1	ADH1 H49Q	inhibitor	–	pH 7	–	Ki	480 µM
O=C(Nc1ccc2c(c1)C=CCP(=O)(O)O2)c1ccccc1I	CA9	–	–	–	–	Ki	0.0146 µM
COCC1OC2CC(CC(N)C(=O)O)(C(=O)O)OC2C(O)C1O (centres unmarked)	Grik2	[3H]kainate displacement	HEK-293T/17 membranes	with: [3H]kainate	–	Ki	2.4 µM
CCO	ADH1 H49Q	inhibitor	–	pH 7.3	–	Ki	27000 µM

SMILES	tested on	assay	system	setting	how to read	measurement	result
Cc1cccc(C)c1N1C(=O)[C@H](CC2CNc3ccccc32)NC2(CCN(C)CC2)C1=O (some centres unmarked)	SIGMAR1	–	–	–	–	Ki	> 10 µM
O=C(O)CCC(=O)C(=O)O	HIF1AN (Homo sapiens, UniProt Q9NWT6, E105A)	cosubstrate	–	pH 7.00, 37.0 °C, mutant E105A, with: CTAD peptide 100 µM	–	Ki	~300 µM and 430 µM
NC(CC1(C(=O)O)CC2OC(CO)C(O)C(N)C2O1)C(=O)O (centres unmarked)	Grik2	binding	HEK293T/17 membranes	with: [3H]kainate	–	Ki	0.929 µM
COc1ccc(S(=O)(=O)N2CCCCC2)cc1C	Melanopsin (Opn4, Mus musculus, UniProt Q9QXZ9)	binding	–	–	–	Ki	0.047 µM
O=C(Nc1ccc2c(c1)C=CCP(=O)(O)O2)c1ccc(Br)cc1	CA9	–	–	–	–	Ki	0.0258 µM
OC1Cc2ccccc2CC1N1CCC2(CC1)C(Br)=Cc1ccccc12 (racemic)	Tmem97	binding, radioligand displacement	rat liver membranes	with: [3H]DTG, dextrallorphan masking	–	Ki	11 ± 1 µM
CCOP1(=O)CC=Cc2cc(N)ccc2O1 (centres unmarked)	CA9	–	–	–	–	Ki	0.0035 µM
O=[As](O)(O)c1ccc(Cc2ccc([As](=O)(O)O)cc2)cc1	Autotaxin (ENPP2, Homo sapiens, UniProt Q13822)	lysoPLD activity	–	pH 8.0, with: FS-3	–	Ki	0.24 ± 0.045 µM
CC=O	ADH1 H49Q	inhibitor	–	pH 7.3	–	Ki	550 µM
OC1Cc2ccccc2CC1N1CCC2(C=Cc3cc(F)ccc32)CC1 (racemic)	Tmem97	radioligand binding	rat liver	with: [3H]DTG, 1 µM dextrallorphan mask	–	Ki	0.25 ± 0.14 µM
CCCC[C@H](NC(=O)[C@H](C[SeH])NC(=O)CNC(=O)[C@H](CCCCN)NC(=O)[C@H](CCCNC(=N)N)NC(=O)[C@H](CCCCN)NC(=O)[C@H](C[SeH])NC(=O)CNC(=O)[C@H](CCCCN)NC(=O)[C@H](CCCNC(=N)N)NC(=O)[C@H](CCCCN)NC(=O)[C@H](C[SeH])NC(=O)[C@H](C)NC(C)=O)C(N)=O	Genome polyprotein, NS2B-NS3 protease (ZIKV, UniProt A0A024B7W1)	enzyme activity, inhibitor	Zika virus	–	–	Ki	0.024 µM
Nc1nc2c(c(=O)[nH]1)N(C=O)[C@H](CNc1ccc(C(=O)N[C@@H](CCC(=O)O)C(=O)O)cc1)CN2	Proton-coupled folate transporter, E247R; ThTr1 chimera (Homo sapiens, UniProt Q96NT5)	[3H]methotrexate uptake, inhibitor, Dixon plot	transfected cells tp-E247R	pH 5.5, with: [3H]methotrexate 0.5 µM	–	Ki	0.53 ± 0.18 µM
COc1ccc(C(=O)Nc2ccc3c(c2)C=CCP(=O)(O)O3)cc1	CA9	–	–	–	–	Ki	0.0101 µM
CCOc1ccc(NC(=O)c2cnn(-c3ccc(C)c(Cl)c3)c2C2CCNCC2)cc1	Vero-E6	CellTiter-Glo ATP	–	72 h, first round 5-point	baseline: DMSO 0%, hyamine -100%, more negative, more toxic	maximum response	-8.17%
O=C(Nc1ccc(F)cc1)Nc1ccc2c(c1)C=CCP(=O)(O)O2	CA9	–	–	–	–	Ki	0.0044 µM
Cc1cccc(C)c1N1C(=O)CNC2(CCN(C)CC2)C1=O	SIGMAR1	–	–	–	–	Ki	> 10 µM

A few entries again:
SMILES	tested on	assay	system	setting	how to read	measurement	result
OC1Cc2ccccc2CC1N1CCC2(C=Cc3ccc(F)cc32)CC1 (racemic)	Tmem97	radioligand binding	rat liver	with: [3H]DTG, 1 µM dextrallorphan mask	–	Ki	0.19 ± 0.05 µM
OB(O)c1csc2ccccc12	Uncharacterized hydrolase SAUSA300_2518 (Staphylococcus aureus, UniProt Q2FDS6)	enzyme activity, inhibitor	–	–	–	Ki	0.012 µM
COc1cc(Nc2ncc(F)c(Nc3ccc4c(n3)NC(=O)C(C)(C)O4)n2)cc(OC)c1OC	NR3C1 (Homo sapiens, UniProt P04150)	–	–	–	–	IC50	> 10 µM
O=C(NCCN1CCCCC1)c1ccc(-c2ccc(N3CCSCC3)nc2)cc1	Vero-E6	CellTiter-Glo ATP	–	72 h, second round 5-point	baseline: DMSO 0%, hyamine -100%, more negative, more toxic	maximum response	-24.1%
